Assay results from different studies.
Numbers after ± are the reported error.

| SMILES | test system | setting | endpoint | value |
| --- | --- | --- | --- | --- |
| CC(C)[C@H]1NC(=O)[C@H](Cc2ccccc2)NC(=O)[C@@H](C(C)C)NC(=O)[C@@H](C)NC(=O)[C@H](CO)NC(=O)[C@@H](Cc2c(-c3ccc(-c4ccc5ccccc5c4)cc3)[nH]c3ccccc23)NC(=O)[C@@H](CO)NC1=O | female Sprague-Dawley rat, plasma | intraperitoneal, 20 mg/kg, single dose | Cmax | 5.33 µg/mL |
| CN[C@H](CC(C)C)C(=O)N[C@H]1C(=O)N[C@@H](CC(N)=O)C(=O)N[C@H]2C(=O)N[C@H]3C(=O)N[C@H](C(=O)N[C@H](C(=O)O)c4cc(O)cc(O)c4-c4cc3ccc4O)[C@H](O)c3ccc(c(Cl)c3)Oc3cc2cc(c3O[C@@H]2O[C@H](CO)[C@@H](O)[C@H](O)[C@H]2O[C@H]2C[C@](C)(NCc3ccc(-c4ccc(Cl)cc4)cc3)[C@H](O)[C@H](C)O2)Oc2ccc(cc2Cl)[C@H]1O | mouse, plasma | intravenous, 75 mg/kg | Cmax | 125 µg/mL |
| NC1CCN(C(=O)Oc2ccc(C3CCCC4(C3)OOC3(O4)C4CC5CC(C4)CC3C5)cc2)CC1 (racemic) | male Sprague-Dawley rat, plasma | oral, 50 mg/kg | Cmax | 0.22 µg/mL |
| CC(C)N1CCCCC1C(=O)NC(Cc1ccc(-c2ccccc2)cc1)B(O)O (stereo not drawn) | rat, plasma | oral, 1 mg/kg | Cmax | 0.666 µM |
| O=C1NC2(CC2)COc2ncc(F)cc2[C@H]2COCCN2c2ccn3ncc1c3n2 | Sprague-Dawley rat, male, serum | oral, 5 mg/kg/day, 4 weeks daily, end of treatment | glucose | 8.6 ± 1.5 mmol/L |
| COc1nc(CC=C(C)CC=CC(C)=CC(C)C(OC2OC(CO)C(O)C(O)C2O)C(C)=CCO)c(C)c(O)c1OC (stereo not drawn) | male C57BL/6 mouse, plasma | intravenous, 2 mg/kg | Cmax | 1.87 µg/mL |
| C/C(=N\OCCCN1CCCCC1)c1ccc(C(F)(F)F)cc1 | mouse, plasma | oral, 75 mg/kg twice daily, day 1 | Cmax | 1.84 ± 0.924 µg/mL |
| CCCCCCCCCCCCCC(=O)N[C@H](CCN)C(=O)N[C@@H]1C(=O)N[C@@H](CCN)C(=O)N[C@@H](CC(C)C)C(=O)N[C@@H](CCN)C(=O)N[C@H](Cc2ccccc2)C(=O)N[C@@H](CC(C)C)C(=O)N[C@@H](CCN)C(=O)N[C@H](CCN)C(=O)N[C@@H](C(C)C)C(=O)N[C@@H](CC(=O)O)C(=O)O[C@@H]1C | rat, plasma | subcutaneous, 10 mg/kg | Cmax | 5.2 µg/mL |
| CC1(C)C(=O)N(c2ccc(C#N)c(C(F)(F)F)c2)C(=S)N1c1ccc(C(=O)O)c(F)c1 | human, male, plasma | oral, 80 mg, soft capsule | Cmax | 0.0651 ± 0.0169 µg/mL |
| CCCCCCCCCCCCCCCC(=O)N[C@@H](CCC(=O)NCCOCCOCCC(=O)NCCOCCOCCC(=O)NCCCC[C@H](NC(=O)[C@H](CC(=O)O)NC(=O)[C@H](CC(C)C)NC(=O)[C@H](Cc1ccc(O)cc1)NC(=O)[C@H](CCCCN)NC(=O)[C@H](CO)NC(=O)[C@H](Cc1ccc(O)cc1)NC(=O)[C@H](CC(=O)O)NC(=O)[C@H](CO)NC(=O)[C@@H](NC(=O)[C@H](Cc1ccccc1)NC(=O)[C@@H](NC(=O)CNC(=O)[C@H](CCC(N)=O)NC(=O)[C@@H](CO)NC(=O)[C@@H](N)Cc1c[nH]cn1)[C@@H](C)O)[C@@H](C)O)C(=O)N[C@@H](CCCNC(=N)N)C(=O)N[C@@H](CCCNC(=N)N)C(=O)N[C@@H](C)C(=O)N[C@@H](CCC(N)=O)C(=O)N[C@@H](CC(=O)O)C(=O)N[C@@H](Cc1ccccc1)C(=O)N[C@H](C(=O)N[C@@H](CCC(N)=O)C(=O)N[C@@H](Cc1c[nH]c2ccccc12)C(=O)N[C@@H](CC(C)C)C(=O)N[C@@H](CC(C)C)C(=O)N[C@@H](CC(N)=O)C(=O)N[C@H](C(=O)NCC(=O)NCC(=O)N1CCC[C@H]1C(=O)N[C@@H](CO)C(=O)N[C@@H](CO)C(=O)NCC(=O)N[C@@H](C)C(=O)N1CCC[C@H]1C(=O)N1CCC[C@H]1C(=O)N1CCC[C@H]1C(=O)N[C@@H](CO)C(N)=O)[C@@H](C)O)C(C)C)C(=O)O | rhesus monkey, female, plasma | subcutaneous, 60 µg/kg, day 1, toxicokinetics, mean | Cmax | 0.117 µg/mL |
| Cn1nc(NS(C)(=O)=O)c2c(Cl)ccc(-n3c([C@H](Cc4cc(F)cc(F)c4)NC(=O)Cn4nc(C(F)F)c5c4C(F)(F)[C@@H]4C[C@H]54)nc4nc(OCCC(F)(F)F)ccc4c3=O)c21 | human, plasma | oral, 1875 mg single dose, powder in bottle, geometric mean | Cmax | 0.558 µg/mL |
| CC1(C)C(=O)N(c2ccc(C#N)c(C(F)(F)F)c2)C(=S)N1c1ccc(C(N)=O)c(F)c1 | human, male, plasma | oral, 160 mg, soft capsule | Cmax | 0.432 ± 0.125 µg/mL |

Some of these lines once more:
| SMILES | test system | setting | endpoint | value |
| --- | --- | --- | --- | --- |
| NC1CCN(C(=O)Oc2ccc(C3CCCC4(C3)OOC3(O4)C4CC5CC(C4)CC3C5)cc2)CC1 (racemic) | male Sprague-Dawley rat, plasma | oral, 50 mg/kg | Cmax | 0.22 µg/mL |
